Experimental data of several laboratories.
Parts stem from different laboratories: compare values within a part only.

Sample 1
Target: Interferon regulatory factor 7, full length, phosphomimetic (IRF7, Homo sapiens, UniProt Q92985, residues 1-503, S471D/S472D/S475D/S476D/S477D/S483D/S484D/S487D)
Sequence of UniProt Q92985 (whole entry, unmodified, looked up): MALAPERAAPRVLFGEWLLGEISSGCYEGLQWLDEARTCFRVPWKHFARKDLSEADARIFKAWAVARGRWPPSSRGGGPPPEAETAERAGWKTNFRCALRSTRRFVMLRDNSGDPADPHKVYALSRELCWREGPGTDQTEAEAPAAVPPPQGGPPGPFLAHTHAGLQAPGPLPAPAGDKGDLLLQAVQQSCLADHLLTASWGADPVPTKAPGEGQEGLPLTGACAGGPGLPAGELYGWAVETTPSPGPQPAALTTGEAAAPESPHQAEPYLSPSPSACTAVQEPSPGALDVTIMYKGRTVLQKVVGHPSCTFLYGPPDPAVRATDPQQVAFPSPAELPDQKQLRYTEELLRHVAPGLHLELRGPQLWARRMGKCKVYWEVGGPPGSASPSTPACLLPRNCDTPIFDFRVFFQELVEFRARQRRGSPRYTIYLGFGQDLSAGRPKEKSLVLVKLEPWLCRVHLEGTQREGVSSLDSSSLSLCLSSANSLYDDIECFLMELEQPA
Method: protein-binding microarray
Form: double-stranded DNA, one strand shown
Sample: in vitro
Tested at: 2200 nM top
Notes: 60-bp whole probe
Added: salmon DNA 0.4 mg/ml
Reference: random background probes
Reading: higher = stronger binding
| Strand | fitted relative affinity |
| --- | --- |
| GCCTAGCACTTAGGACTGGACACTTGGTTAGTGCTAGTCTTGATTCGCTTGACGCTGCTG | -0.653 z-score |
| GCCTAGCACATTTTTATCAAATGTGGGATTGTGCTAGTCTTGATTCGCTTGACGCTGCTG | 0.0718 z-score |
| GCCTAGCACGACGGTATCGGTCTCGTGACGTGCTAGGTCTTGATTCGCTTGACGCTGCTG | 0.372 z-score |
| GCCTAGCACTTAGATATCAGTCTCGATAAGTGCTAGGTCTTGATTCGCTTGACGCTGCTG | 0.129 z-score |

Sample 2
Target: RNA binding protein fox-1 homolog 2, RRM domain, GST-SBP tag (RBFOX2, Homo sapiens, UniProt O43251-10, residues 100-194)
Method: RNA Bind-n-Seq
Form: RNA
Sample: in vitro
Tested at: 365 nM
Notes: natural RNA segment, single round, ends assumed
Reference: no-protein control
Reading: higher = stronger binding
| Strand | RBNS enrichment (R) |
| --- | --- |
| GGGAGUUCUACAGUCCGACGAUCUGUAUCCCAGCCAGCCUGGGUCUCACUGUAUAGCUGGAGAGACUUUCGAAAUUGUAUCCUUCUGACUCUGCUUCCUGGGUGCUGAAAUUAAAGGCAUGUGCCACUAUGCAUGGAAUUCUCGGGUGCCAA | 3.8 |
| GGGAGUUCUACAGUCCGACGAUCCUCAGAGCCGCCCACCCUGGAUGAAUUCUGGUCCUUCAGAGAAUCGGCCCUACCAUGGCAUGCAUGGAGGUGGUCCUGGUGGUCCUGGAGGUGGCCCCCACAGCUUCCCAUGGAAUUCUCGGGUGCCAA | 0.995 |
| GGGAGUUCUACAGUCCGACGAUCGCCUCUGGGCCCUCCCAGCACACGCAUGGUCUCUUCACCGCUGCCCUCGAGUUCCAUGUCUCUUUCCCCUGCCCCUAGUUGCUGUCUCGGCUGCUCUCCCAUAGUUGGUUUGGAAUUCUCGGGUGCCAA | 6.41 |
| GGGAGUUCUACAGUCCGACGAUCUCAUCUGCUUUGUGUACAUAUGGUAUUAAAACUGAAAACAAAUAUUCUUGACAUUUGGGUUUCAAAAUUGUGUUAGCACUUAUUUUAGAAACAUUAAUUAAGUGUAUGGCUGGAAUUCUCGGGUGCCAA | 0.599 |

Sample 3
Target: Ras GTPase-activating protein-binding protein 1, RRM domain (G3BP1, Homo sapiens, UniProt Q13283)
Sequence of UniProt Q13283 (whole entry, looked up): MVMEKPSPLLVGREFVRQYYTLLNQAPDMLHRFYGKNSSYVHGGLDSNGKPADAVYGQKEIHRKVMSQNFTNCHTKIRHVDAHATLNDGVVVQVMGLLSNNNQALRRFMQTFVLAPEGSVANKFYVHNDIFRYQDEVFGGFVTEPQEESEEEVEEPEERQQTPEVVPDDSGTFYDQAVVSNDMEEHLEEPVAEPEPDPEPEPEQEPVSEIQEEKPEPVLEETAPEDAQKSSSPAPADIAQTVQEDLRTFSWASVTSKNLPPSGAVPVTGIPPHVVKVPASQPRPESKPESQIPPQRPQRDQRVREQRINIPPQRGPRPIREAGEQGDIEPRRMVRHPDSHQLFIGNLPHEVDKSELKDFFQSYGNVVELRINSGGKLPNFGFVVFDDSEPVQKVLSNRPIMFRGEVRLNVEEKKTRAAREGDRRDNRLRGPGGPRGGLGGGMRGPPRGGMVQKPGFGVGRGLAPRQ
Method: RNA Bind-n-Seq
Form: RNA
Sample: in vitro
Tested at: 1 µM
Notes: whole 134-nt RNA, ends assumed
Added: 150 mM KCl
Reference: input library
Reading: higher = stronger binding
All sequences stand within: GGGAGUUCUACAGUCCGACGAUC … UGGAAUUCUCGGGUGUCAAGG
| Strand | log2 enrichment |
| --- | --- |
| UCAAGUCCUGUGCUACACAUCGUAUGUACCGAAUCGGGAAAAAGGGAGGGAGGGAAAGUAUUAUGUUACGCCGUUCGGAUCUGCACUUCC | 0.83 |
| UUUCUAGCUGGACCAGUCCGGUACGCUCCGGGCCUCACCGAGGAAGUCCCACCCUGCAGGGGAACCGACUCUGGCCGGCCCUAACCCCUC | -0.558 |
| GAAAUCCACAGGAAAGUGAUGUCACAAAACUUCACCAACUGCCACACCAAGAUUCGCCAUGUUGAUGCUCAUGCCACGCUAAAUGAUGGU | -0.0436 |
| UCCUGUGCUACACAUCGUAUGUACCGAAUCAAAUUUUUAAACCCCCCCAAAUUUUUAAAAAAGUAUUAUGUUACGCCGUUCGGAUCUGCA | -0.214 |
| ACCAUGCAGGUGGGCAGCUUUGGGAAGUGGGGCAAGGGGGGGAUAGGGAGGGGGGUAACACUUUGGGAACAGGUGGUCCCAGGUCGUUUC | -0.543 |

Other studies, line by line
| Molecule | target | assay | test system | setting | how to read | endpoint | result |
| --- | --- | --- | --- | --- | --- | --- | --- |
| PhoQ, residues 284 288 289 292 302 303 NLSRDF | PhoP, residues 12 14 15 18 19 DLLYY (Escherichia coli, UniProt P23836) | Sort-seq, item: YFP reporter | E. coli | PhoQ-PhoP variant library, added: 10 µM Mg2+ | reference: high Mg2+ state, higher = stronger signaling | fold induction | 0.931 |
